Measurements from different studies.
Every numbered part comes from another study and shows a few of its results, in no order.

Series 1 — method: RNA Bind-n-Seq; molecule type: RNA; matrix: in vitro; concentration: 200 nM; setting: whole 134-nt RNA, ends assumed; with: 150 mM LiCl; reference: input library; reading: higher = stronger binding; each molecule: 7-deaza-guanosine replaces G
Target: Fragile X messenger ribonucleoprotein 1, C-terminal low-complexity region (Fmr1, Mus musculus, UniProt P35922)
Constant ends, left off below: GGGAGUUCUACAGUCCGACGAUC … UGGAAUUCUCGGGUGUCAAGG
Strand	log2 enrichment
GGACACAGCUUGGGCUAUGGCUUUGUGAACUACGUGACCGCGAAGGAUGCAGAGAGAGCGAUCAACACGCUGAACGGCUUGAGGCUCCAG	-2.32
UGGGAGGUGGAUUUUGUUUAUUUUUUUAGCUCAUUUCCAGGGGUGGGAAUUUUUUUUUAAUAUGUGUCAUGAAUAAAGUUGUUUUUUAAA	0.602
AAGUCGCGUGUCUAGGUGAGUCGCGGUGGGUCCUCGCUUGCAGUUCAGCGACCACGGUGGGUACCGUUUUUGCGAGGAUUGUUUGUCCCC	-0.677
ACCAUGCAGGUGGGCAUCUUUGGGAAGUGGGGCAAGGGGGGGAUAGGGAGGGGGGUAAAACUUUGGGAACAGGUGGUCCCAGGUCGUUUC	1.41
UCCUCAAGUCCUGUGCUACACAUCGUAUGUACCGAAUCGGGCGGGCGGCGGGAAAGUAUUAUGUUACGCCGUUCGGAUCUGCACUUCCAG	0.783
UCCUCAAGUCCUGUGCUACACAUCGUAUGUACCGAAUCGGCGGGCGGGCGGGAAAGUAUUAUGUUACGCCGUUCGGAUCUGCACUUCCAG	1.32
AAGUCCUGUGCUACACAUCGUAUGUACCGAAUCGGUUUUUGGUUUUUUUGGAAAGGAAAGUAUUAUGUUACGCCGUUCGGAUCUGCACUU	-1.96
ACCAUGCAGGUGGGCAUCUUUGGGAAGUGGGGCAAGGGGGGGAUAGGGAGGGGGGUAACACGUUGGGAACAGGUGGUCCCAGGUCGUUUC	1.6
UGUCAGUAUCAUACAUAACAGAGGAAUGCCUGAAGAAGCUGGACACAAAGCAGCAGACCAACACCCUGCUCAACCUGGUGUGGAGGGACU	-1.72
AGUCCUGUGCUACACAUCGUAUGUACCGAAUCGGGGUUUUGGUUUUGGGGUUUUGGGAAAGUAUUAUGUUACGCCGUUCGGAUCUGCACU	-1.62
UCCUGUGCUACACAUCGUAUGUACCGAAUCGGGGAAAGGGGAAAAAGGGGAAAAAGGGGAAAGUAUUAUGUUACGCCGUUCGGAUCUGCA	0.133

Series 2 — method: protein binding microarray; molecule type: double-stranded DNA, one strand shown; matrix: in vitro; concentration: not given; reference: not given; reading: higher = stronger binding
Target: Histone acetyltransferase KAT6A, winged helix 1, GST fusion (KAT6A, Homo sapiens, UniProt Q92794, residues 1-85)
Setting: 8-mer, flanks averaged, mean of 2 arrays, mostly near background
Residues (chain): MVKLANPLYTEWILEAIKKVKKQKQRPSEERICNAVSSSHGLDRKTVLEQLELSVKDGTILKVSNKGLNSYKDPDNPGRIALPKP
Strand	E-score
AGAATCTC	-0.22
AACAACTA	-0.036
CCACGGGC	0.301
CTTAAATC	-0.162
AGGAGGCG	0.187
GGGCACAC	-0.197
ATGTTGAG	-0.0114
CCTACATA	-0.161
ACGCCTAC	0.113
GGCGTCCC	0.221
CATTTAGG	-0.0886
ACAGCGCT	0.301
GGGTATGA	-0.000575
GCAAGGGC	0.0701
CATGCCGA	0.222
GAGATCGC	0.0585
CTGCCAAA	-0.151
TTAAGCAA	-0.0689
AATTAACG	0.0599
ACGCGACA	0.246
ATTTCTGG	-0.343
GCATGGAA	0.044
CTCGGTAC	0.0415
AAAGTTGA	-0.136
ATTGGAGA	-0.147

Series 3 — method: RNA Bind-n-Seq; molecule type: RNA; matrix: in vitro; concentration: 365 nM; reference: no-protein control; reading: higher = stronger binding
Target: RNA binding protein fox-1 homolog 2, RRM domain, GST-SBP tag (RBFOX2, Homo sapiens, UniProt O43251-10, residues 100-194)
Setting: natural RNA segment, single round, ends assumed
Constant ends, left off below: GGGAGUUCUACAGUCCGACGAUC … UGGAAUUCUCGGGUGCCAA
Residues (chain): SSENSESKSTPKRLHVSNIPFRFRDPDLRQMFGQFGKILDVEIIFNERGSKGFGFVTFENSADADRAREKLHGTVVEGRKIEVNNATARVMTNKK
Strand	RBNS enrichment (R)
AGUACUGGGCCUUUCUCAGAAGACUUAAUGUACCUGAAGUUUCUGAAAUAUUGCAAAGUUCAGGCUGGUGCUGCCAAAAAGAAAAGUGAUGUAAAGUUUAUUUUUAAGAA	1.11
UGACCACACAGCCUCUGCCUCACGCCUGCUUGGUACACUAAGGGCCAGCCCUGCAGGGGCUGUACCCAGCUUGGCCUUAGCCCAUCUAAGUGCUGUCAACUGGUCUCCCA	0.435
CCCAGGCCCCAAUGCUUGUGUGUGGACCAGCGGCUGCAGCCUUCUAGCCCCUCCUCCCCGCGAGACUCUCAGGCUGAGGUCGGCAAGCCGUGGCUCCCCCACACACCGUG	0.272
UUAGCCCUAGGGUGGUCCCAACCAUGUGAUGUCUGGAGCAUAGGAUGCAUUCUUAUUGAAUACUAUCUUGGGUUUACCGUAUUUCCGACACACGAUAGUAAGGAGCAUUU	0.307
AGAGGCCCCUUCAGGUUCCUGGGUGCUCUUCAAUGGCCAAAACUCGAUUUCAUGUCUGGGAGCCUGGACCAGGCUACCCGGGAAGUCAGGACCCUGAUCAUUCACUGUGA	0.237
UGCCCACCUCUUCUGCGUGCCCCUCUUCUGUCUCAUAGUUGUGUUAAGCUUGCGUAGAAUUGCAGGUCUCUGUACGGGCCAGUUUCUCUGCCUUCUUCCAGGAUCAGGGG	0.553
CCCACGCUGUGCUUCUCUGCUUGCAUUUCCAGGGAGACCGUGUUUUGAACCGCAUCACCUUUCCUUGGCUUAAGCAUUCGUUACUAAUGGCAGGAAAGUCUUCCCUUCUA	2.15
CUUUGUUUGCGGUGUACUGAGGGACCGAUGUAUCCACUGGAAUAGUUGGUACUCUCGGACAGGUUUUCUCACUGAGAUGAGCAGAGAAGGGUUUGCACAGGGGAGUGUGA	1.14
GGGGGACAAGGAGGGUAAGAAAACCACUGCGUGUCCGGGCAUAAUUGAAGCUUGCUCUCCCUAGAUGGGUGGUCUGCUCUCGGUCCUUCUCUGCUCUCUAUAAAAUGGUG	1.34
UAGAUUUUAAAACACUUAACCAAGCCAUUACAUCUUAAAAACAAAACAAGUAGCAUACAUUUUGUAAUUAACAUUGAUAAACACUGUGAUUUUUUUGGUUAAGACUUUUU	0.632
GUAGGGGCCGAGGAGGGCAGAGGGUAUAGGAAGUGAGAACGAGGCCUGUGUCGCAGCAGCCCAGCAUCAAGCAUGUCACACACUGCCCUGCCACAGCCACCUCCCUCCCU	4.69
CGUCUUUAAAGGAAAAGGCCUUUUUUCCAGUCAAUCAGUCAGUCAGUCAGUCAGUCAGUCAUACUGGGAGAAGCUAGCCUUGCAUCCCUAGCACUGUCUCUUCCUGGCAG	0.296

Series 4 — method: protein-binding microarray; molecule type: double-stranded DNA, one strand shown; matrix: in vitro; concentration: not given; reading: higher = stronger binding
Target: Myc proto-oncogene protein, bHLH-zipper, MAX partner unstated (MYC, Homo sapiens, UniProt P01106, residues 368-449)
UniProt P01106, sequence (368-449, looked up): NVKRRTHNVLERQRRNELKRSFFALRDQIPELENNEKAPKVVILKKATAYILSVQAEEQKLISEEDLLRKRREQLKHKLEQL
Setting: k-mer, scored over probes, only values ≥0.25
Strand	E-score
AGCGCATG	0.427
GGACCACA	0.252
CGTGACAC	0.37
GTACACGA	0.365
CGTGACAG	0.301
CACGATGC	0.426
ATGACCAC	0.305
ACAACGTG	0.44
AGTGCACA	0.257
CTCGTGAC	0.396
CGCGTGGA	0.449
AAGCGTGT	0.357
CACGAGAA	0.285
CCTCACGC	0.256
CGTGACTC	0.267
ACATGTCA	0.295

Series 5 — method: RNA Bind-n-Seq; molecule type: RNA; matrix: in vitro; concentration: 100 nM; reference: input RNA pool; reading: higher = stronger binding
Target: RING finger protein unkempt homolog, zinc fingers 1-6, SBP tag (UNK, Homo sapiens, UniProt Q9C0B0, residues 30-357)
UniProt Q9C0B0, sequence (30-357, looked up): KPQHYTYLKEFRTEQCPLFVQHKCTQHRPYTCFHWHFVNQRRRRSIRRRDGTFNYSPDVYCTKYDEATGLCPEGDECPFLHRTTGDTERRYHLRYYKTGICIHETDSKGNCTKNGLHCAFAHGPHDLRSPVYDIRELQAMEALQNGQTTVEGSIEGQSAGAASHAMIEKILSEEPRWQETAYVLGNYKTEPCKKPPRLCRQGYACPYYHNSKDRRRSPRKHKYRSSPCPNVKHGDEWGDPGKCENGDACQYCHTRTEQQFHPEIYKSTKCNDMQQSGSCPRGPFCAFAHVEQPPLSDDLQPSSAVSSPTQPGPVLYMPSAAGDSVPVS
Setting: RNA with constant flanks, vertebrate orthologous sites, ends assumed
Constant ends, left off below: GGGAGUUCUACAGUCCGACGAUC … CAACAGAGGAUUGAGCAUCA
Strand	bound/input enrichment [ratio]
GUUGGGCCAUGACCCCUAUAGAUUAGGUCAUGAUGCUUACAGGUUAGGACAAGACCCUUAUAGAUUAGGCCAUGAUCCCUACAGACUAACUCCUGAUCCCUAUAGGAUGUCACCUAGACC	0.816
GCAUGCACAUGCCGCUGUCACCAAAAGCAACUGCCGUCUUCAAAAUCUCCAGUAGCCUUCUUAGGAUUCUCUCCCUCCUUCCCUUCUGUUCCCCCGAUGCUUUAAAUGAUUAGAAGUCCU	1.3
CUCAUUUCCAGGUUGGCUCUAGUGGAAAAGUCAUAGGAAUUGACCACAUUAAAGAGCUAGUAGAUGACUCAAUAAAUAAUGUCAGAAAGGACGAUCCGGUGCUUUUGUCUUCAGGGAGAG	0.547
CCAAAAUUUUAACCAAGAAUCUGAAGGUAGAAAUACAGGACCAUGGUUAUCUUCCUCACUUAGAAAUAGAUGCACACCUUUGUUCUCUAGAAGGAGGCGAGAGGGACGAGAUGAAUCUUC	0.88
GGACUGGGGGGUGGUGGGUGGGAAGAAGAUGUAUGGAUGUUAUUGGCAUUUUUAAGUGUUCAGAGGUGGGUUUUUUUUCCCCCCUUUCUGUUUUGUUUUUGUUUUUUUUUCCCUUCAAUU	0.731
UAUUAGUGUCAUACCAGCAUAUUAACCUCUCGUCUGUGCACAGCUUCAAAUGUUACCGUCUAGUUAGAUUUUUAUUUAAAAUAUGAAAAACUGCUUUUCCCAAGACGUUUUUUAAAACAA	1.61
GUGAGGGUCUACUGACCACUCACUGUCAUGUCUGGUAUCUGUAAACACUCUUUUCGUUCUUAGUCUUUUUCUUGUAUAAUUGAUGUUCUUUAAAAUUGUUAAUGUAUAACAGGGCUUAUG	1.92
ACCAGUUCAUGGAUUCCGAACUGGAUUCAGCAAUGUUCCAGGAAGGUAUGGAACGAACACUCAGGGACAGUUUGGUCAGUUCAGACCAUAGUGUACUAUAUUUAGAGCCAAUGGCAUAAC	0.342
UUUUGUUUUGUUUUGCACAUGACAGUGUGUGUAUUGAUCUGAGGAAGGAGGGGGGUGCUGGUGCAGUUGCCCUCCAGUGCCCCCCACCCUCACUACCCCACCUGGUGUCUUUGCCACGUU	0.337
UUUUUUAAAGUUUUUUUAAUUUAAUUUUUUCCUUUUGGGGGUAAAGUUUGCUCUACCAAAUAGUGAUCGUAACAAAUUGAUCUGUUUUGGAUGUUGCUAUAGUGACAUGCAGUUAUACAU	0.811
CCCUCUUAAUCCCAUAUCUUCUGUUUCAUAAUGCUGAAGUCAUAUCUUCAAUUACUCUAUUAGUGACCUUAUUUUAAUUUUAGAGAACCCUUCAGUAUGGAUACUGUGAGCUGAAAUGGA	1.39

Repeated from above (series 3):
Strand	RBNS enrichment (R)
UGCCCACCUCUUCUGCGUGCCCCUCUUCUGUCUCAUAGUUGUGUUAAGCUUGCGUAGAAUUGCAGGUCUCUGUACGGGCCAGUUUCUCUGCCUUCUUCCAGGAUCAGGGG	0.553
CCCACGCUGUGCUUCUCUGCUUGCAUUUCCAGGGAGACCGUGUUUUGAACCGCAUCACCUUUCCUUGGCUUAAGCAUUCGUUACUAAUGGCAGGAAAGUCUUCCCUUCUA	2.15
CUUUGUUUGCGGUGUACUGAGGGACCGAUGUAUCCACUGGAAUAGUUGGUACUCUCGGACAGGUUUUCUCACUGAGAUGAGCAGAGAAGGGUUUGCACAGGGGAGUGUGA	1.14
GGGGGACAAGGAGGGUAAGAAAACCACUGCGUGUCCGGGCAUAAUUGAAGCUUGCUCUCCCUAGAUGGGUGGUCUGCUCUCGGUCCUUCUCUGCUCUCUAUAAAAUGGUG	1.34
UAGAUUUUAAAACACUUAACCAAGCCAUUACAUCUUAAAAACAAAACAAGUAGCAUACAUUUUGUAAUUAACAUUGAUAAACACUGUGAUUUUUUUGGUUAAGACUUUUU	0.632
